Results of several laboratories.
A part holds a random share of what one study measured.
Chain of UniProt Q8N5S9 (whole entry, looked up): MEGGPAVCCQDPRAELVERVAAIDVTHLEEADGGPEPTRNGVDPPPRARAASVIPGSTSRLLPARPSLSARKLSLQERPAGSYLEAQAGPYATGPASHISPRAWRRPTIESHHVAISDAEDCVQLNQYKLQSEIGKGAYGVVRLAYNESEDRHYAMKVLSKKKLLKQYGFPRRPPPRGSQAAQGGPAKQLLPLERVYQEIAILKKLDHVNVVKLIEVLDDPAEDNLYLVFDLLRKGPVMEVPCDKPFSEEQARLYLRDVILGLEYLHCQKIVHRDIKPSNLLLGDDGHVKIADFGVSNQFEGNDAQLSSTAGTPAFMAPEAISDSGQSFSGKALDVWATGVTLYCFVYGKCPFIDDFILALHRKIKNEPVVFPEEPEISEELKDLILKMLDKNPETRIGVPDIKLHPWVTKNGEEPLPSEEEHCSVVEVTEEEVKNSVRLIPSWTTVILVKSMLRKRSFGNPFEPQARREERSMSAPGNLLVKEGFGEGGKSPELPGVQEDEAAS
Chain of UniProt Q8IYT8 (whole entry, looked up): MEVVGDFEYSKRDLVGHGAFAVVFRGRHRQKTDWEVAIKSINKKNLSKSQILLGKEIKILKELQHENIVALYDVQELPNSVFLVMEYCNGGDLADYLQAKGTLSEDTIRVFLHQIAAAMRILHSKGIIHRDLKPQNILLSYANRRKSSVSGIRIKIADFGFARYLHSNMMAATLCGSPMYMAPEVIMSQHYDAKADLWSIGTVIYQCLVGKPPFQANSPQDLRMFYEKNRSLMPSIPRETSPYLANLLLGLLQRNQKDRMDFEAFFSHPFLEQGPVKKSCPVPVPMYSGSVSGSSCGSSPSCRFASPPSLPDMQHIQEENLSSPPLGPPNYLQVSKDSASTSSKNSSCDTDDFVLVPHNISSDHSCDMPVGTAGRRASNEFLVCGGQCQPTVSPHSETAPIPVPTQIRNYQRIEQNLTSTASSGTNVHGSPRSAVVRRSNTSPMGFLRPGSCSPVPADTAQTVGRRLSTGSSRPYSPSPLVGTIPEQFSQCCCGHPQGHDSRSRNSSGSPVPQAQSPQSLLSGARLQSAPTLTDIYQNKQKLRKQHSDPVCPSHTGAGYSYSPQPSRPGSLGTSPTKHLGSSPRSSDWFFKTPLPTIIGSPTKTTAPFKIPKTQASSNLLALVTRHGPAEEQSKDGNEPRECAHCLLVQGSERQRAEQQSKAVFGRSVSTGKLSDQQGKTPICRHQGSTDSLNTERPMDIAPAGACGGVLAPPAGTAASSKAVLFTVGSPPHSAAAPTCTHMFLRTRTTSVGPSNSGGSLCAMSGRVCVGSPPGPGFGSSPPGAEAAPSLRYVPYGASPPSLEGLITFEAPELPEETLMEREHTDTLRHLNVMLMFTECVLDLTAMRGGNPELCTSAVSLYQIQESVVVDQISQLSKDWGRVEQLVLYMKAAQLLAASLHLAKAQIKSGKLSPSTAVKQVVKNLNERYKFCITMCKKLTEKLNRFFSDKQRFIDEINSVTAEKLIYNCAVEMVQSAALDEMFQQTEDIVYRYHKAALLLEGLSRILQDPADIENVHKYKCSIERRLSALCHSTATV
Chain of UniProt O14733 (whole entry, looked up): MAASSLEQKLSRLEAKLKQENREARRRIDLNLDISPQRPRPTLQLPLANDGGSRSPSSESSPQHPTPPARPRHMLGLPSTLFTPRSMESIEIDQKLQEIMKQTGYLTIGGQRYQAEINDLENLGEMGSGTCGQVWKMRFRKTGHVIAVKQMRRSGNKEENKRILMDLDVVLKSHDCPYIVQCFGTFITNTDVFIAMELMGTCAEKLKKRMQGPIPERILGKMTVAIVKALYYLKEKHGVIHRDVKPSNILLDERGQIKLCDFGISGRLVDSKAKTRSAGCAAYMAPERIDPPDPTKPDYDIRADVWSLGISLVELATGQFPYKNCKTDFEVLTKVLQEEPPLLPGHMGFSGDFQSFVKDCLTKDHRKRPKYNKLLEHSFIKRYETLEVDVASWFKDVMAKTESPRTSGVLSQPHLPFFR
Chain of UniProt Q05655 (whole entry, looked up): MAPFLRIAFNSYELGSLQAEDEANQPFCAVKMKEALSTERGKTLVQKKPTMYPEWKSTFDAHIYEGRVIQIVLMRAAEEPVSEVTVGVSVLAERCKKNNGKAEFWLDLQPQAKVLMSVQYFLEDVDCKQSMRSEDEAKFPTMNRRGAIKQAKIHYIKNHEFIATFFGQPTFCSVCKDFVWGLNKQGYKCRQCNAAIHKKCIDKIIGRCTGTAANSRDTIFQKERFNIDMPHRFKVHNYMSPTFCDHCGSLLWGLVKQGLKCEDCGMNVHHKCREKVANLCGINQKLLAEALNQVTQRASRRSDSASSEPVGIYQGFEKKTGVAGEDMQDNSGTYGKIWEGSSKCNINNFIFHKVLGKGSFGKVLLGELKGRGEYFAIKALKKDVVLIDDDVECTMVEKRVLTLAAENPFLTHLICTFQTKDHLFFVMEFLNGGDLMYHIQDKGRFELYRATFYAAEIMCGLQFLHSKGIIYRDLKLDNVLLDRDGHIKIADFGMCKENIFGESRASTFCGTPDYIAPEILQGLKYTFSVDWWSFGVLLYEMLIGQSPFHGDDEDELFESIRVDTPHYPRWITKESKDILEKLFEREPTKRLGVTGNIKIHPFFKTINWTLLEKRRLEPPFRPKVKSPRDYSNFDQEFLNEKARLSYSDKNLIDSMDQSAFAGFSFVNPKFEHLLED
Chain of UniProt O75385 (whole entry, looked up): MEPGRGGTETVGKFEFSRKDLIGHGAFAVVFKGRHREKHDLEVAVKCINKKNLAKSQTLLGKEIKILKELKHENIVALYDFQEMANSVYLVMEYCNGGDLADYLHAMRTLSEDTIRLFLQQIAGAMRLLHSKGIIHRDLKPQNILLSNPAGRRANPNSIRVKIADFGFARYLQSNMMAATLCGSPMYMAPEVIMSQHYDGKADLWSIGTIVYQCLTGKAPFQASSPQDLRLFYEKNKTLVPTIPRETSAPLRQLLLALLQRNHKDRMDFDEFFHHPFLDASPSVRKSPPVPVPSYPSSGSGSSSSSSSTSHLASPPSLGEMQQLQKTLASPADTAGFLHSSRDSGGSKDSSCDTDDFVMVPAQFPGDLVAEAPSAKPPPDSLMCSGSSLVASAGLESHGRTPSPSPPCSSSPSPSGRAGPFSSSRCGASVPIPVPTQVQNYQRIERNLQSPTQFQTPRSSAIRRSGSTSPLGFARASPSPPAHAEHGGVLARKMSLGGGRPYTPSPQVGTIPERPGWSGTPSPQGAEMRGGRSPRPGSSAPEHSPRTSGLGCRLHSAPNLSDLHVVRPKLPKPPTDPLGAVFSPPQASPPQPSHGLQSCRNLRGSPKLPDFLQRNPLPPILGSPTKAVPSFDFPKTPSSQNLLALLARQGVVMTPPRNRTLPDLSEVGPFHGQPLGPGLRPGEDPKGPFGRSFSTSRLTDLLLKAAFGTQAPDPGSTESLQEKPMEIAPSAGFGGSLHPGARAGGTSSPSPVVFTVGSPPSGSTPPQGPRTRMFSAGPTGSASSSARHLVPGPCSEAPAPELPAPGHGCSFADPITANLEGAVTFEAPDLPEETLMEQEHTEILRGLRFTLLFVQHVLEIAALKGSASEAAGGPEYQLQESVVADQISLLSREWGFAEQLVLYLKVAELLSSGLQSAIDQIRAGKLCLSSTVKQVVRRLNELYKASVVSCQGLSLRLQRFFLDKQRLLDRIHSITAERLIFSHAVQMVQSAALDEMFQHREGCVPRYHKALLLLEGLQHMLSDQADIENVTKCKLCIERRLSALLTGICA
Chain of UniProt O00506 (whole entry, looked up): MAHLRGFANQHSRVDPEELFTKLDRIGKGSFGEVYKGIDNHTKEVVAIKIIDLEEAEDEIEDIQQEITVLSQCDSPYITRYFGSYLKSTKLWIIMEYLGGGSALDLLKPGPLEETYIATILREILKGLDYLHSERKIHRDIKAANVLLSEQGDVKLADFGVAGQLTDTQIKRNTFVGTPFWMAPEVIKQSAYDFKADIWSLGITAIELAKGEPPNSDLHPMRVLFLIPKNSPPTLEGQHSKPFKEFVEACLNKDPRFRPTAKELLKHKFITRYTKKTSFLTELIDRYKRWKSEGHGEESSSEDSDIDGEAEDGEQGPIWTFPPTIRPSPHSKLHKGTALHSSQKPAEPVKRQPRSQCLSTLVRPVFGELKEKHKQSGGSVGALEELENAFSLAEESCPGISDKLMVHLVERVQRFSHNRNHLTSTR

Sample 1 — technique: RNA Bind-n-Seq; molecule type: RNA; sample: in vitro; tested at: 200 nM; notes: whole 134-nt RNA, ends assumed; together with: 150 mM LiCl; relative to: input library; reading: higher = stronger binding; measurement: log2 enrichment; library: 7-deaza-guanosine replaces G
Target: Fragile X messenger ribonucleoprotein 1, C-terminal low-complexity region (Fmr1, Mus musculus, UniProt P35922)
Shared flanks, not repeated: GGGAGUUCUACAGUCCGACGAUC … UGGAAUUCUCGGGUGUCAAGG
AAGUCCUGUGCUACACAUCGUAUGUACCGAAUCGGUUUUUUUGGUUUUUGGAAAGGAAAGUAUUAUGUUACGCCGUUCGGAUCUGCACUU: -1.95
GUCCUGUGCUACACAUCGUAUGUACCGAAUCGGGAGGGUUUUUUUGGGAAAAAAAGGGAAAGUAUUAUGUUACGCCGUUCGGAUCUGCAC: -1.16
ACCAUGCAGGUGGGCAUCUUUGGGAAGUGGGGCAAGGGGGGGAUAGGGAGGAAAGUAACACUUUGGGAACAGGUGGUCCCAGGUCGUUUC: 0.122
CCUCAAGUCCUGUGCUACACAUCGUAUGUACCGAAUCGGGUGGGGUGGUGGGGAAAGUAUUAUGUUACGCCGUUCGGAUCUGCACUUCCA: -0.52
GCAGGAAGUAAAAACAAAUGGAAAUGCUUCGGAUAGUGGCAGGGGUGGGGGUAAAUAAGGAAAGGGUGGGAUGGGAGUGGGUAAAGAGUU: 1.75
UAACUUUAGAGGAGGAUCUGAUGGAUAUGGCAGUGGACGUGGAUUUGGGGAUGGCUAUAAUGGGUAUGAAGGAGGACCUGGAGGUGGCAA: -0.00307
CUGUGCUACACAUCGUAUGUACCGAAUCGGGGCCCCCCCGGCCCCCCCGGGGCCCCCCCGGGAAAGUAUUAUGUUACGCCGUUCGGAUCU: -0.416
CCUGUGCUACACAUCGUAUGUACCGAAUCGGGUUUUUUUGGGUUUUUUUGGGUUUUUUUGGAAAGUAUUAUGUUACGCCGUUCGGAUCUG: 0.783

Sample 2 — effect on: enzyme activity; mode: inhibitor; tested at: 0.5 µM; relative to: control; measurement: remaining activity
Target: Protein kinase C epsilon type (PRKCE, Homo sapiens, UniProt Q02156)
Chain of UniProt Q02156 (whole entry, looked up): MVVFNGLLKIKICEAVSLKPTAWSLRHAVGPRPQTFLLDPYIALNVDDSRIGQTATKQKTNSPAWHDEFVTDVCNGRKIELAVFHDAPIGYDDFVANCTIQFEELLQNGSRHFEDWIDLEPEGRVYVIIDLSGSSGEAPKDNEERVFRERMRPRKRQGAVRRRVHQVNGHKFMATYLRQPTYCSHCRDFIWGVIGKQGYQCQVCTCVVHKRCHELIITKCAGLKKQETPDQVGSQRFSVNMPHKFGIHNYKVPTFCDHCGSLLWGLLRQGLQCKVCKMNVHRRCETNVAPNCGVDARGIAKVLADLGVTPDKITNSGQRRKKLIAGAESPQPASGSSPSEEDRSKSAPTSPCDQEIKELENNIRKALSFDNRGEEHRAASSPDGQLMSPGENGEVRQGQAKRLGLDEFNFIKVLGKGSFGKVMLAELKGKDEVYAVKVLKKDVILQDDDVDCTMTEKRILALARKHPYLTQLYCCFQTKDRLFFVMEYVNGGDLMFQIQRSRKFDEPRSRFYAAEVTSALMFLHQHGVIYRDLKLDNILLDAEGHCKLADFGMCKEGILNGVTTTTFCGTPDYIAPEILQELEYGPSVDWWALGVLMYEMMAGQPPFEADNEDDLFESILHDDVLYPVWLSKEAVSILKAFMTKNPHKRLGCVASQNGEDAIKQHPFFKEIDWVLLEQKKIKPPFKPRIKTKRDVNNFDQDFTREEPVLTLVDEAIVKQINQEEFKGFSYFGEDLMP
O=C1c2ccccc2-c2n[nH]c3cccc1c23: 98.5%
N#Cc1c(NC(=O)c2cccc3ccccc23)sc2c1CCCC2: 99.1%
COc1cc2ncnc(Nc3cccc(Cl)c3)c2cc1OC: 97.8%
O=C(NC(NC(=S)Nc1ccc(F)c([N+](=O)[O-])c1)C(Cl)(Cl)Cl)C(c1ccccc1)c1ccccc1 (stereo not drawn): 109%

Sample 3 — technique: competition with immobilised ligand; tested at: 0.1 µM; measurement: remaining binding
Structure (SMILES): Cn1nc(C(=O)NCc2ccc(C(=O)O)cc2)cc1-c1ccc2[nH]ccc2c1
DYRK1B (Homo sapiens, UniProt Q9Y463); cell-free assay: 100%
SGK2 (Homo sapiens, UniProt Q9HBY8); cell-free assay: 54%
Tyrosine-protein kinase ABL1, non-phosphorylated (ABL1, Homo sapiens, UniProt P00519, T315I); cell-free assay: 73%
ULK2 (Homo sapiens, UniProt Q8IYT8); cell-free assay: 98%
MAP2K7 (Homo sapiens, UniProt O14733); cell-free assay: 95%
ERBB2 (Homo sapiens, UniProt P04626); cell-free assay: 92%
MAP2K3 (Homo sapiens, UniProt P46734); cell-free assay: 93%
STK17B (Homo sapiens, UniProt O94768); cell-free assay: 91%
CAMKK1 (Homo sapiens, UniProt Q8N5S9); cell-free assay: 85%
Tyrosine-protein kinase ABL1, phosphorylated (ABL1, Homo sapiens, UniProt P00519, E255K); binding: 65%
CAMK2D (Homo sapiens, UniProt Q13557); cell-free assay: 83%
FLT3 (Homo sapiens, UniProt P36888, F691L/ITD); cell-free assay: 66%
ULK1 (Homo sapiens, UniProt O75385); cell-free assay: 83%
PRKCD (Homo sapiens, UniProt Q05655); cell-free assay: 89%
STK32A (Homo sapiens, UniProt Q8WU08); cell-free assay: 92%
STK25 (Homo sapiens, UniProt O00506); cell-free assay: 91%

Sample 4 — species: human; sample: microsomes or S9; tested at: 2 µM; time: 0.5 h; measurement: remaining compound
CC1NC(=O)CCC1NS(=O)(=O)c1cccc2ccoc12 (stereo not drawn): 62.9%
COc1ccc([C@H]2COc3c(ccc(O)c3OC)C2)c(OC)c1O: > 99%
O=C(O)CCC(=O)N1N=C(c2nn(-c3ccccc3)cc2-c2ccccc2)CC1c1cccs1 (stereo not drawn): 75.7%

Sample 5 — cell line: Huh-7; tested at: 10 µM; time: 24 h; measurement: viability
C#C[C@]1(O)CC[C@H]2[C@@H]3CCC4=CC(=O)CC[C@@H]4[C@H]3CC[C@@]21C: 83.8%
C=C1CC[C@H](O)C/C1=C/C=C1\CCC[C@]2(C)[C@@H]([C@H](C)/C=C/[C@H](C)C(C)C)CC[C@@H]12: 97%
N[C@@H](Cc1ccc(O)c(O)c1)C(=O)O: 100%
CC(=O)[C@H]1CC[C@H]2[C@@H]3CCC4=CC(=O)CC[C@]4(C)[C@H]3CC[C@]12C: 81.3%
CNCCCN1c2ccccc2CCc2ccccc21: 90.4%

Mixed results
COC(=O)c1cc(Cl)ccc1N(C)C(=O)c1ccn2ncc(-c3ccc(C(N)=O)cc3)c2c1  AUC (female C57BL/6 mouse, plasma; oral, 10 mg/kg): 0.142 µM·h
CC(C)n1cnc(-c2ccc(F)cc2)c1-c1ncc(C(=O)Nc2ccc(N3CCN(C)CC3)cc2)[nH]1  patients with chronic gastritis TEAE (phase 2a clinical trial; patients with idiopathic pulmonary fibrosis; 30 mg once daily): 0%
CNC(=O)c1ccc(-c2cnn3ccc(C(=O)N(C[C@H]4CCC(=O)O4)c4ccc(OC(F)(F)F)cc4)cc23)cc1  AUC (female C57BL/6 mouse, plasma; oral, 10 mg/kg): 0.075 µM·h

Some of these lines once more (sample 1):
ACCAUGCAGGUGGGCAUCUUUGGGAAGUGGGGCAAGGGGGGGAUAGGGAGGAAAGUAACACUUUGGGAACAGGUGGUCCCAGGUCGUUUC: 0.122
CCUCAAGUCCUGUGCUACACAUCGUAUGUACCGAAUCGGGUGGGGUGGUGGGGAAAGUAUUAUGUUACGCCGUUCGGAUCUGCACUUCCA: -0.52
GCAGGAAGUAAAAACAAAUGGAAAUGCUUCGGAUAGUGGCAGGGGUGGGGGUAAAUAAGGAAAGGGUGGGAUGGGAGUGGGUAAAGAGUU: 1.75
UAACUUUAGAGGAGGAUCUGAUGGAUAUGGCAGUGGACGUGGAUUUGGGGAUGGCUAUAAUGGGUAUGAAGGAGGACCUGGAGGUGGCAA: -0.00307
CUGUGCUACACAUCGUAUGUACCGAAUCGGGGCCCCCCCGGCCCCCCCGGGGCCCCCCCGGGAAAGUAUUAUGUUACGCCGUUCGGAUCU: -0.416
CCUGUGCUACACAUCGUAUGUACCGAAUCGGGUUUUUUUGGGUUUUUUUGGGUUUUUUUGGAAAGUAUUAUGUUACGCCGUUCGGAUCUG: 0.783
